# Experimental data collected from several papers.
# Lines come from different studies, so protocols differ.
# Target: Prostaglandin G/H synthase 1 (PTGS1, Ovis aries, UniProt P05979)
# Sequence of UniProt P05979 (whole entry, looked up): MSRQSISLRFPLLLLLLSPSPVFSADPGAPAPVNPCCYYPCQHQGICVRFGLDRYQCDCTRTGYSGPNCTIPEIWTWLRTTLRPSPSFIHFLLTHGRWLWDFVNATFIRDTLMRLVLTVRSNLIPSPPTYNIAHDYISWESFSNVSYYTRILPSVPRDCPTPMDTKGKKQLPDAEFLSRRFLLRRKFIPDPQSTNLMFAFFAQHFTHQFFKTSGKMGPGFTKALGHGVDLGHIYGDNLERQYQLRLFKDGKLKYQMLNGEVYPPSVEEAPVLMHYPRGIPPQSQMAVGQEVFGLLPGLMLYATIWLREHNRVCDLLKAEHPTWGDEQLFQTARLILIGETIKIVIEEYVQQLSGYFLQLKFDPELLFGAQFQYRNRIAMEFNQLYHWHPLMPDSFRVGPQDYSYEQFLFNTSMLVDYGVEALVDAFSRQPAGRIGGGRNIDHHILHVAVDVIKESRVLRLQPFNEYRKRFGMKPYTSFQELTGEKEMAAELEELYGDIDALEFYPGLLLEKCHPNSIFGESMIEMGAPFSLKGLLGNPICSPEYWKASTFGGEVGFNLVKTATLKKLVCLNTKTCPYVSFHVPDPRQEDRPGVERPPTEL
# Observed: enzyme activity
Structure (SMILES),test,IC50 [µM]
Fc1ccc(Nc2c(Cl)cccc2Cl)c(Cc2nnn[nH]2)c1,"inhibitor, fluorescence",> 100
C[C@H]1CCCC[C@@H]1NC(=O)/C(C#N)=C/c1cn(-c2ccccc2)nc1-c1cccs1,"inhibitor, absorbance",15.2
C(=C\c1ccccc1)/N=c1\oc2ccccc2cc1-c1ccccc1,inhibitor,0.0151
NS(=O)(=O)Cc1ccccc1Nc1c(Cl)cccc1Cl,"inhibitor, fluorescence",> 100
COc1ccc(/N=N/c2ccc(O)c(C3c4c([nH]c(=S)[nH]c4=O)Nc4[nH]c(=S)[nH]c(=O)c43)c2)cc1,"inhibitor, ELISA",6.86
Cc1cccc(/N=c2\oc3ccccc3cc2-c2ccccc2)c1,inhibitor,0.0084
O=C(NCc1ccccc1)/C(=C/c1cn(-c2ccccc2)nc1-c1ccccc1)NC(=O)c1ccc(Cl)cc1Cl,"inhibitor, absorbance",9.32
COc1ccc(/N=N/c2ccc(O)c(C3c4c([nH]c(=S)[nH]c4=O)Nc4[nH]c(=S)[nH]c(=O)c43)c2)cc1OC,"inhibitor, ELISA",4
COc1cc(O)ccc1CCC(c1ccc(O)cc1)c1cc2c(c(C)c1O)OC(c1ccc(O)cc1)CC2 (mixture of isomers),purified enzyme,> 10
Cc1cccc(/N=N/c2ccc(O)c(C3c4c([nH]c(=S)[nH]c4=O)Nc4[nH]c(=S)[nH]c(=O)c43)c2)c1,"inhibitor, ELISA",7.88
Clc1ccc(/N=c2\oc3ccccc3cc2-c2ccccc2)cc1,inhibitor,0.0109
CSc1nn(-c2ccccc2)c(NC(=O)/C(C#N)=C(/Nc2ccc(C)cc2)Nc2c(C)n(C)n(-c3ccccc3)c2=O)c1C#N,inhibitor,12.5
Fc1ccc(/N=c2\oc3ccccc3cc2-c2ccccc2)cc1,inhibitor,0.0118
Clc1cccc(Cl)c1Nc1ccccc1Cc1nnn[nH]1,"inhibitor, fluorescence",> 100

# Repeated from above:
Structure (SMILES),test,IC50 [µM]
C[C@H]1CCCC[C@@H]1NC(=O)/C(C#N)=C/c1cn(-c2ccccc2)nc1-c1cccs1,"inhibitor, absorbance",15.2
Cc1cccc(/N=N/c2ccc(O)c(C3c4c([nH]c(=S)[nH]c4=O)Nc4[nH]c(=S)[nH]c(=O)c43)c2)c1,"inhibitor, ELISA",7.88
